Experimental data pooled from the literature.
Numbered parts are unrelated; each lists some results of a single study. Changes are numbered by the printed parent chain.
Chain of UniProt Q13131 (whole entry, looked up): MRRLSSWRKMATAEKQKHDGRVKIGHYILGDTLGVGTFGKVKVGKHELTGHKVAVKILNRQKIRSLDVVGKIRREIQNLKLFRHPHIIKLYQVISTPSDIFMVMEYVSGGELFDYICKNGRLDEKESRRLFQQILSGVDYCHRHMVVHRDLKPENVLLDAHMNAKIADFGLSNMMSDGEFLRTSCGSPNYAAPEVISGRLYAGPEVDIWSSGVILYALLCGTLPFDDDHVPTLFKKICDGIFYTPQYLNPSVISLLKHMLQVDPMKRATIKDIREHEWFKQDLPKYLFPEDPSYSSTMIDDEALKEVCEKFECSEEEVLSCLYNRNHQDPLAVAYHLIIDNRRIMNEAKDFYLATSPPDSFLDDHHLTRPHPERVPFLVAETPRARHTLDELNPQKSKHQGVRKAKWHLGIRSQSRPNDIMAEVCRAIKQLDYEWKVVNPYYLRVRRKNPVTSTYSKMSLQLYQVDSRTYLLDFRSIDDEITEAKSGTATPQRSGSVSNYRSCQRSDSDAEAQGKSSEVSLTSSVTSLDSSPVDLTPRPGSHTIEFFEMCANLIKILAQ
Chain of UniProt Q15418 (whole entry, looked up): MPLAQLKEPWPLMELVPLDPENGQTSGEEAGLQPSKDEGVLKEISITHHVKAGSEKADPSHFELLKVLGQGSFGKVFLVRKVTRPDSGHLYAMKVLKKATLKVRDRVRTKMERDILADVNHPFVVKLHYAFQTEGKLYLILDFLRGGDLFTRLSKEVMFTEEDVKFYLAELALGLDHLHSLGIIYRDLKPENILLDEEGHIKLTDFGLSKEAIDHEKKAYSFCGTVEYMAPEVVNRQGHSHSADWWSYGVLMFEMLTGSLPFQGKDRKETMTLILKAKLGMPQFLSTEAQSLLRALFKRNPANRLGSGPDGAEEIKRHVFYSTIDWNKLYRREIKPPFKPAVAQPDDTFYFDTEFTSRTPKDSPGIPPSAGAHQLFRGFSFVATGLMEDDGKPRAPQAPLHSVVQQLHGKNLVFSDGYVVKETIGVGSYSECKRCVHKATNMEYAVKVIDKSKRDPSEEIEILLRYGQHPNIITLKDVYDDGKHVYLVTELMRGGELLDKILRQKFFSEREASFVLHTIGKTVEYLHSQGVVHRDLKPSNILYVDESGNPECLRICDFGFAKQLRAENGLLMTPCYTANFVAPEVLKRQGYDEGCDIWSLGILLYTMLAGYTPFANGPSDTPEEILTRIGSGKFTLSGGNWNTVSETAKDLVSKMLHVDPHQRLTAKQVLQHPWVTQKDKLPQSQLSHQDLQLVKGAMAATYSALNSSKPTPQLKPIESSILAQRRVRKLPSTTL
Chain of UniProt Q06418 (whole entry, looked up): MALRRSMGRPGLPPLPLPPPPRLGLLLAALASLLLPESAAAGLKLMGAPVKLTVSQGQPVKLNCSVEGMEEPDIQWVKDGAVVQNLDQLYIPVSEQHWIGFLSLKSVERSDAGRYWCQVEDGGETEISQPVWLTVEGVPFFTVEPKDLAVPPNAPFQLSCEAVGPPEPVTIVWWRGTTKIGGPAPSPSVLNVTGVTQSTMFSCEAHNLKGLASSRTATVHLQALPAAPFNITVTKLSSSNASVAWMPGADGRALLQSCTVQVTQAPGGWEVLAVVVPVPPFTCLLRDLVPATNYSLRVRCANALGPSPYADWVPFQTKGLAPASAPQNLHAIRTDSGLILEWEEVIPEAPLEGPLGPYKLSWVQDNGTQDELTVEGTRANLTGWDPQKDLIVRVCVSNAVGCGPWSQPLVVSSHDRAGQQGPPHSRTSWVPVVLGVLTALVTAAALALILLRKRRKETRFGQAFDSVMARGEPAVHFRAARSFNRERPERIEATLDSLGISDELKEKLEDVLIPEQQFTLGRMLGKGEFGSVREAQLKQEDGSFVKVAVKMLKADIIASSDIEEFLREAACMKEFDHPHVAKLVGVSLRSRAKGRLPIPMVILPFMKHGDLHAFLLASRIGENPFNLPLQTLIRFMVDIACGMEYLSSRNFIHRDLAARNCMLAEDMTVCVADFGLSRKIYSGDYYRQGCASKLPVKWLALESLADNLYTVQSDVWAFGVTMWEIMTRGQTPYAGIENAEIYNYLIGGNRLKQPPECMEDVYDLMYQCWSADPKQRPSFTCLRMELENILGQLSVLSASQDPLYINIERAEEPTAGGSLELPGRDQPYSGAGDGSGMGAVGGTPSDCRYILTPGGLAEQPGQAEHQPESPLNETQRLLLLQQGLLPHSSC
Chain of UniProt P45985 (whole entry, looked up): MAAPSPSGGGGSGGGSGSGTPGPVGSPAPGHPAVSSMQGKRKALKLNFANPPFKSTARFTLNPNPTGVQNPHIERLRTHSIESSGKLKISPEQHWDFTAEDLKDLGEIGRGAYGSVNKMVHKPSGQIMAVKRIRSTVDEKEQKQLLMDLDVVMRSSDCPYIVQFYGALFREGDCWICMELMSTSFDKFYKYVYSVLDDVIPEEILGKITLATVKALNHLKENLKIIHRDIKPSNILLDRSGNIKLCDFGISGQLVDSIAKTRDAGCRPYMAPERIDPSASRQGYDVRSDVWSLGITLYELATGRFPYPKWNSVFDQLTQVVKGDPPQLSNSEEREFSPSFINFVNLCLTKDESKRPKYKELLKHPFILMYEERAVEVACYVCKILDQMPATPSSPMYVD

Study 1 — method: universal PBM; molecule type: double-stranded DNA, one strand shown; sample: in vitro; concentration: 600 nM; reading: higher = stronger binding
Target: Sal-like protein 4, full length isoform A (SALL4, Homo sapiens, UniProt Q9UJQ4, residues 1-1053)
Chain of UniProt Q9UJQ4 (whole entry, looked up): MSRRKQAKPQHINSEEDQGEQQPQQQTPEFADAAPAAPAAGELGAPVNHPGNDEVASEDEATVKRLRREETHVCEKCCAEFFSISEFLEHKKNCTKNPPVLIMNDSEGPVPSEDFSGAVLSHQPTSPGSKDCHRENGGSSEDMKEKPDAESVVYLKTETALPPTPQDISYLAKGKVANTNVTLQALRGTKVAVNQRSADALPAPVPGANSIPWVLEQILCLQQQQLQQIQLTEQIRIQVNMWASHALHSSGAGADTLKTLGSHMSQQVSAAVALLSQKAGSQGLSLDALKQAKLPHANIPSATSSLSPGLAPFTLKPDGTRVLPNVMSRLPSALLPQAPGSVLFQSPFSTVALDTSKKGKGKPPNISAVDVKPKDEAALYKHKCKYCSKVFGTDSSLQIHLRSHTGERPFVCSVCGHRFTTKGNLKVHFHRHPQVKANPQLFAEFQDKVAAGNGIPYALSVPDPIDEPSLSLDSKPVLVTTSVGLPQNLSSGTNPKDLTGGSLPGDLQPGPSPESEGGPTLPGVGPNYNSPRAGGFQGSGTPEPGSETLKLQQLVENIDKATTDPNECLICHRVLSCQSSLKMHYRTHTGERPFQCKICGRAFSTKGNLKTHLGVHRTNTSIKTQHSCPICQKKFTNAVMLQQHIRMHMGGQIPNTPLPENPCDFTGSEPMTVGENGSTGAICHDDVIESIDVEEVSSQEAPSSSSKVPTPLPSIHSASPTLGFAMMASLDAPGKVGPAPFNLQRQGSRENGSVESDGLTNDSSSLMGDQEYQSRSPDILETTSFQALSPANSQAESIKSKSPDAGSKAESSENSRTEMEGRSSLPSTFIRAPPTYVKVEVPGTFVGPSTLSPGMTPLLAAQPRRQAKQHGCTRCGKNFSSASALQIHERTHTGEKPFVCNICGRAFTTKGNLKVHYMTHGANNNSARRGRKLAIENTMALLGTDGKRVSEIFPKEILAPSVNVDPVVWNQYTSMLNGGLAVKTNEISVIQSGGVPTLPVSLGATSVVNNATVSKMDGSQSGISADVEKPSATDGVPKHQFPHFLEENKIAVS
Setting: 8-mer, flanks averaged, mean of replicates
Sequence	E-score
AAAGACGT	0.123
ACCAACGA	-0.0589
GGCTTCAA	-0.0203
CAAGTGAC	-0.0652
AGGGTGCG	-0.302
ACTCGTAA	0.188
ACTTAACC	0.183
CGGTAAAC	0.0536

Study 2 — method: DHFR PCA, dose-response; sample: yeast; setting: Hill fit, mean, not affinity; with: (+)-ABA, dose series; reading: lower = more sensitive
Target: ABI1, truncated, D143A, DHFR fusion (Arabidopsis thaliana, UniProt P49597)
Starting sequence: PYL1, truncated, DHFR fusion (Arabidopsis thaliana, UniProt Q8VZS8); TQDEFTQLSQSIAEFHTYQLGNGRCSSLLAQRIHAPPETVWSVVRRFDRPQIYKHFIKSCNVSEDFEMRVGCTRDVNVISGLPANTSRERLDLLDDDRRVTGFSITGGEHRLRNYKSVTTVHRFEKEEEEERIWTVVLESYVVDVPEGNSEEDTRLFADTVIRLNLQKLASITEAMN
Substitution	ABA EC50 [µM]
F15M	13.5
L156T	0.527
D65I	18.7
K116N	33.5
G148P	34
R49M	2.4
L156A	1.24
K58T	11.1

Study 3 — read-out: enzyme activity; action: inhibitor; concentration: 0.5 µM; reference: control
Target: Vascular endothelial growth factor receptor 2 (KDR, Homo sapiens, UniProt P35968)
Chain of UniProt P35968 (whole entry, looked up): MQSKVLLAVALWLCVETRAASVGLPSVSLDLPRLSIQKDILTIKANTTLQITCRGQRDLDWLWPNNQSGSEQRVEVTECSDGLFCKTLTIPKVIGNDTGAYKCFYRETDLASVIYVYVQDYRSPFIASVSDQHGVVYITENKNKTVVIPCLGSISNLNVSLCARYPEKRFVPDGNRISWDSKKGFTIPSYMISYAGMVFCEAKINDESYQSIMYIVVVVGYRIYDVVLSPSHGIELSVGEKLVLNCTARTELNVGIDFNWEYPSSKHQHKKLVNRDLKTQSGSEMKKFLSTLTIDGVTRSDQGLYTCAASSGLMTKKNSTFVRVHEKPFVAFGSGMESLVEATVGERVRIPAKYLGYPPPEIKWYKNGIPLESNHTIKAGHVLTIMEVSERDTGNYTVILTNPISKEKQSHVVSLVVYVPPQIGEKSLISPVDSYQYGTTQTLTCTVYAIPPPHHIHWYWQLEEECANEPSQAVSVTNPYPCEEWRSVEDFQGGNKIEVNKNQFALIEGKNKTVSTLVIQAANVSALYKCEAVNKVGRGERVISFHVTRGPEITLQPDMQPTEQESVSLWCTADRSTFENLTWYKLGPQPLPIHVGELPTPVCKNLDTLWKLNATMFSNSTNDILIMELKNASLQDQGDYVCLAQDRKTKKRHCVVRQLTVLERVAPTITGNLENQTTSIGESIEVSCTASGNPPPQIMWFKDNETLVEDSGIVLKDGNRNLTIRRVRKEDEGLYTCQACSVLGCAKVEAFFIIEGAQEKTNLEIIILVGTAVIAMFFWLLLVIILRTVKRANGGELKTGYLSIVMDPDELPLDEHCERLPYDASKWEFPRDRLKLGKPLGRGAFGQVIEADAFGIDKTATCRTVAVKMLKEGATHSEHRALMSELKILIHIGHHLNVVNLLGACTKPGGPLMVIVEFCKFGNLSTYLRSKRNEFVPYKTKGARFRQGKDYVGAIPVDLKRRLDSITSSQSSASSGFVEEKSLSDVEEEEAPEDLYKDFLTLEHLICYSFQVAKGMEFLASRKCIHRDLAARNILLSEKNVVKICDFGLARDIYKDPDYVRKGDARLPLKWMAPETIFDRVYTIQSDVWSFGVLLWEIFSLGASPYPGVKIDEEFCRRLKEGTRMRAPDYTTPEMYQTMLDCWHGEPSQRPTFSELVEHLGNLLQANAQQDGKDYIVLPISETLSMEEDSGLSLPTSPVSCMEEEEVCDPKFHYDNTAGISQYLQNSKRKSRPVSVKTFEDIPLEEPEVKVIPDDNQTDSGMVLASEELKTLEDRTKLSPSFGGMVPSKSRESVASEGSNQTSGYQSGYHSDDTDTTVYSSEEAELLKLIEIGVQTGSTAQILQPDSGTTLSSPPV
Structure (SMILES)	remaining activity
CO[C@H]1C[C@@H]2CC[C@@H](C)[C@@](O)(O2)C(=O)C(=O)N2CCCC[C@H]2C(=O)O[C@H]([C@H](C)C[C@@H]2CC[C@@H](O)[C@H](OC)C2)CC(=O)[C@H](C)/C=C(\C)[C@@H](O)[C@@H](OC)C(=O)[C@H](C)C[C@H](C)/C=C/C=C/C=C/1C	98.1%
COc1ccc(OC)c2c(=S)c3ccccc3[nH]c12	108%
O=S(=O)(c1cccc2cnccc12)N1CCCNCC1	86.9%
O=C(Nc1cccc(Nc2cc(Nc3cccc(C(F)(F)F)c3)ncn2)c1)C1CC1	101%
N#CC(C#N)=C(N)/C(C#N)=C/c1ccc(O)cc1	97.2%
COc1ccc(C(=O)Nc2sc3c(c2C(N)=O)CCCC3)cc1OC	78.2%
Cn1sc(=O)n(Cc2ccccc2)c1=O	89.4%
O=C1NC(=O)C(c2cn(CCCO)c3ncccc23)=C1c1cnccn1	82.1%
Cn1c2ccccc2c2c3c(c4c5ccccc5n(CCC#N)c4c21)CNC3=O	57%
C#Cc1cccc(Nc2ncnc3cc(OCCOC)c(OCCOC)cc23)c1	80.3%
Nc1[nH]nc2nc3ccccc3nc12	95.8%
COc1ccc(CNC(=O)Nc2ncc([N+](=O)[O-])s2)cc1	85.7%
COc1cc2ncnc(Nc3ccc(Oc4ccccc4)cc3)c2cc1OC	92.1%
Nc1ncnc2n[nH]c(Nc3ccc(F)cc3)c12	104%
O=C1NC(=O)C(c2cn(CCCn3ccnc3)c3ccccc23)=C1Nc1ccccc1	90.2%
Oc1ccc(-c2nc(-c3ccncc3)c(-c3ccc(F)cc3)[nH]2)cc1	99.9%
O=c1c2ccccc2[nH]c(=S)n1CCN1CCC(=C(c2ccc(F)cc2)c2ccc(F)cc2)CC1	93.1%
COc1cc2nccc(Oc3ccc(NC(=S)NC(=O)c4ccccc4C)cc3)c2cc1OC	74.1%
CC(C)[C@H](CO)Nc1nc(Nc2cc(N)cc(Cl)c2)c2ncn(C(C)C)c2n1	102%
Cc1nc(-c2ccccc2)c(-c2ccncc2)o1	85.2%
Cc1ccc(NC(=O)c2ccc(CN3CCN(C)CC3)cc2)cc1Nc1nc(-c2cccnc2)cs1	106%
CN(C)c1ccc(C=C2C(=O)Nc3ccccc32)cc1	94.3%
OCC(O)CCON=C1C(c2c(O)[nH]c3ccccc23)=Nc2ccccc21 (centres unmarked)	56.4%
O=C(O)c1ccc2c3c1cccc3c(=O)n1c3ccccc3nc21	101%
CCOC(=O)c1c(C)[nH]c(/C=C2\C(=O)Nc3ccccc32)c1C	93.2%

Study 4 — method: competition with immobilised ligand; concentration: 1 µM
Compound: O=C(O)[C@H]1[C@H](Cn2nnc3ccccc3c2=O)CC[C@@H]1C(=O)c1ccc(OCCC2CCOCC2)cc1
target	assay	remaining binding
NEK1 (Homo sapiens, UniProt Q96PY6)	cell-free assay	82%
PRKAA1 (Homo sapiens, UniProt Q13131)	cell-free assay	100%
CSNK1D (Homo sapiens, UniProt P48730)	cell-free assay	100%
Ribosomal protein S6 kinase alpha-1, N-terminal kinase domain (RPS6KA1, Homo sapiens, UniProt Q15418)	cell-free assay	90%
MELK (Homo sapiens, UniProt Q14680)	cell-free assay	96%
PRKCH (Homo sapiens, UniProt P24723)	cell-free assay	89%
CDKL3 (Homo sapiens, UniProt Q8IVW4)	binding	87%
MARK1 (Homo sapiens, UniProt Q9P0L2)	cell-free assay	99%
MAP3K7 (Homo sapiens, UniProt O43318)	cell-free assay	100%
TYRO3 (Homo sapiens, UniProt Q06418)	cell-free assay	100%
CAMKK1 (Homo sapiens, UniProt Q8N5S9)	cell-free assay	81%
PIK3CA (Homo sapiens, UniProt P42336, E542K)	cell-free assay	71%
EGFR (Homo sapiens, UniProt P00533, del752-759)	cell-free assay	40%
MAP2K4 (Homo sapiens, UniProt P45985)	cell-free assay	97%
MAP3K5 (Homo sapiens, UniProt Q99683)	cell-free assay	95%
ROS1 (Homo sapiens, UniProt P08922)	cell-free assay	95%
MET (Homo sapiens, UniProt P08581)	cell-free assay	94%
AKT1 (Homo sapiens, UniProt P31749)	cell-free assay	83%
GRK1 (Homo sapiens, UniProt Q15835)	cell-free assay	97%
IGF1R (Homo sapiens, UniProt P08069)	cell-free assay	100%
TEK (Homo sapiens, UniProt Q02763)	cell-free assay	86%

Some of these lines once more (study 4):
target	assay	remaining binding
CAMKK1 (Homo sapiens, UniProt Q8N5S9)	cell-free assay	81%
CSNK1D (Homo sapiens, UniProt P48730)	cell-free assay	100%
ROS1 (Homo sapiens, UniProt P08922)	cell-free assay	95%
